Measurements from different studies.
Every numbered part comes from another study and shows a few of its results, in no order. Changes are numbered by the printed parent chain.

Series 1
Target: CCNB2, cyclin fold, Cln2 fusion (human)
Technique: yeast growth competition, sequencing
Matrix: yeast
Notes: weak parent motif
Relative to: not given
Reading: higher = stronger binding
Parent: MASTL docking peptide (human); PMIAKNLMCELDE
`PMIAKNLMCYLDE [E10Y]` — result for “normalised enrichment score”: 0.524.
`PDIAKNLMCELDE [M2D]` — result for “normalised enrichment score”: 1.31.
Under “normalised enrichment score”, `PMIAKNLMCFLDE [E10F]` is recorded as 0.145.
Under “normalised enrichment score”, `PMIAKNLMCDLDE [E10D]` is recorded as 0.117.
`PMIAKNLMHELDE [C9H]`: “normalised enrichment score” 0.359.

Series 2
Target: Interferon regulatory factor 7, full length, phosphomimetic (IRF7, Homo sapiens, UniProt Q92985, residues 1-503, S471D/S472D/S475D/S476D/S477D/S483D/S484D/S487D)
Chain of UniProt Q92985 (whole entry, unmodified, looked up): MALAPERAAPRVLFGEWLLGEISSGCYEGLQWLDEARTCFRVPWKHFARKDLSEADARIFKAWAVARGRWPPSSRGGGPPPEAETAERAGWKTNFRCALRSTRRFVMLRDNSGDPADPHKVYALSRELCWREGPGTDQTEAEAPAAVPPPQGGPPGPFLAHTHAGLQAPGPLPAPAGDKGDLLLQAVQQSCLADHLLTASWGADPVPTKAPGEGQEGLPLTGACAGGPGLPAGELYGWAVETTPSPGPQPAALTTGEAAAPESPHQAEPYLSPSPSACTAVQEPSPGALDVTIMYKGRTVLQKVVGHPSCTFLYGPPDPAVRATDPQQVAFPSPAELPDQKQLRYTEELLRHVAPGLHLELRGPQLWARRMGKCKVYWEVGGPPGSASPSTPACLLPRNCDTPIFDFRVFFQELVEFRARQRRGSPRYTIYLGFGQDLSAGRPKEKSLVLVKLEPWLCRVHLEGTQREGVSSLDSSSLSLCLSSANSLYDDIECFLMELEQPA
Technique: protein-binding microarray
Molecule type: double-stranded DNA, one strand shown
Matrix: in vitro
Concentration: 2200 nM top
Notes: 60-bp whole probe
Added: salmon DNA 0.4 mg/ml
Relative to: random background probes
Reading: higher = stronger binding
Shared flanks, not repeated: GCCTAGCAC … GTCTTGATTCGCTTGACGCTGCTG
Under “fitted relative affinity”, `TTAGGACTGGGGACTGGGTTGGTGCTA` is recorded as -1.02 z-score.
`GACGGACTGGGTTTCGCGACGTGCTAG`: “fitted relative affinity” 0.199 z-score.
For `TTAGATTTCGGGACTAGATTAGTGCTA`, “fitted relative affinity” read 0.677 z-score.
For `TCTGTTTTTGCTTTCCTTTAGTGCTAG`, “fitted relative affinity” read 5.92 z-score.
Under “fitted relative affinity”, `AACATACTCGTTTACATTTTGTGCTAG` is recorded as 1.78 z-score.
`TAACCTTGAACTTTGGCCTCGTGCTAG`: “fitted relative affinity” 0.23 z-score.

Series 3
Target: Sal-like protein 4, full length isoform A (SALL4, Homo sapiens, UniProt Q9UJQ4, residues 1-1053)
Chain of UniProt Q9UJQ4 (whole entry, looked up): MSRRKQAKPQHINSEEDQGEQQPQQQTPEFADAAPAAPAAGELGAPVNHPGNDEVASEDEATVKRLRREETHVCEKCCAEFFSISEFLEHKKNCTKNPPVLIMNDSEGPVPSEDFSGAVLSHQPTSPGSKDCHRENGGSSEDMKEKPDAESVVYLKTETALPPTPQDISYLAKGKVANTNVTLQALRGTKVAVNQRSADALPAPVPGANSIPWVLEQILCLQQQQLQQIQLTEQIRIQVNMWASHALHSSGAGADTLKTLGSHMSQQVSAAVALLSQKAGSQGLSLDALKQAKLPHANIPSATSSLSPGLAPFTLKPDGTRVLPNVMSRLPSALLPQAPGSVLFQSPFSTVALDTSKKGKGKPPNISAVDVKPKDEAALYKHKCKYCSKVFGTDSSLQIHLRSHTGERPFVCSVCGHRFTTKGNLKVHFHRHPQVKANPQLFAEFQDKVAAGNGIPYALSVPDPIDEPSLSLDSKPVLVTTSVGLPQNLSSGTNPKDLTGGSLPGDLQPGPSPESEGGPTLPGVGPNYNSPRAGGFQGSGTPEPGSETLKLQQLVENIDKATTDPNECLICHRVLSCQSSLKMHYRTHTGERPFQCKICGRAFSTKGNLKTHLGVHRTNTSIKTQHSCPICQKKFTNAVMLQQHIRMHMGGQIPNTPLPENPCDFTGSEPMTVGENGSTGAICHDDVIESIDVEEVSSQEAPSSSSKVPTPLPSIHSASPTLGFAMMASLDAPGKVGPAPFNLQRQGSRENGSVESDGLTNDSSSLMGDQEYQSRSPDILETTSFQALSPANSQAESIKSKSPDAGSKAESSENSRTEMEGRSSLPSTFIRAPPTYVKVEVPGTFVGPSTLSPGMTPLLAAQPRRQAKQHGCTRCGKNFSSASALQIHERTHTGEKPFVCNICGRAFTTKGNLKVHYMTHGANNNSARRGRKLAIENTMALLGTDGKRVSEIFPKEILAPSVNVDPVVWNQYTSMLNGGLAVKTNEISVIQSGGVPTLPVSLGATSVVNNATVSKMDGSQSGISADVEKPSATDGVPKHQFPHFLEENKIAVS
Technique: universal PBM
Molecule type: double-stranded DNA, one strand shown
Matrix: in vitro
Concentration: 600 nM
Notes: 8-mer, flanks averaged, mean of replicates
Reading: higher = stronger binding
`AATTAAAA` gave an E-score of 0.311.
`CCAACCCC` has an E-score of -0.127.
The E-score of `CTACCGTC` is reported as -0.221.
With `AACGGGAA` the E-score was 0.151.
With `CTGGAAGA` the E-score was -0.0999.
For `CATTCACA`, the E-score was 0.211.
The E-score of `GCTGCCTA` is reported as -0.158.

Further values, each from its own experiment
`PhoQ, residues 284 288 289 292 302 303 SQSLSM` has a fold induction of 8.67 (PhoP, residues 12 14 15 18 19 SQCLL (Escherichia coli, UniProt P23836); Sort-seq, refers to: YFP reporter; E. coli; PhoQ-PhoP variant library, added: 10 µM Mg2+; relative to: high Mg2+ state, higher = stronger signaling).

A few entries again (series 1):
`PMIAKNLMHELDE [C9H]`: “normalised enrichment score” 0.359.
